Measurements collected from several papers.
Parts stem from different laboratories: compare values within a part only.

Set 1
Target: Sal-like protein 4, full length isoform A (SALL4, Homo sapiens, UniProt Q9UJQ4, residues 1-1053)
UniProt Q9UJQ4, sequence (whole entry, looked up): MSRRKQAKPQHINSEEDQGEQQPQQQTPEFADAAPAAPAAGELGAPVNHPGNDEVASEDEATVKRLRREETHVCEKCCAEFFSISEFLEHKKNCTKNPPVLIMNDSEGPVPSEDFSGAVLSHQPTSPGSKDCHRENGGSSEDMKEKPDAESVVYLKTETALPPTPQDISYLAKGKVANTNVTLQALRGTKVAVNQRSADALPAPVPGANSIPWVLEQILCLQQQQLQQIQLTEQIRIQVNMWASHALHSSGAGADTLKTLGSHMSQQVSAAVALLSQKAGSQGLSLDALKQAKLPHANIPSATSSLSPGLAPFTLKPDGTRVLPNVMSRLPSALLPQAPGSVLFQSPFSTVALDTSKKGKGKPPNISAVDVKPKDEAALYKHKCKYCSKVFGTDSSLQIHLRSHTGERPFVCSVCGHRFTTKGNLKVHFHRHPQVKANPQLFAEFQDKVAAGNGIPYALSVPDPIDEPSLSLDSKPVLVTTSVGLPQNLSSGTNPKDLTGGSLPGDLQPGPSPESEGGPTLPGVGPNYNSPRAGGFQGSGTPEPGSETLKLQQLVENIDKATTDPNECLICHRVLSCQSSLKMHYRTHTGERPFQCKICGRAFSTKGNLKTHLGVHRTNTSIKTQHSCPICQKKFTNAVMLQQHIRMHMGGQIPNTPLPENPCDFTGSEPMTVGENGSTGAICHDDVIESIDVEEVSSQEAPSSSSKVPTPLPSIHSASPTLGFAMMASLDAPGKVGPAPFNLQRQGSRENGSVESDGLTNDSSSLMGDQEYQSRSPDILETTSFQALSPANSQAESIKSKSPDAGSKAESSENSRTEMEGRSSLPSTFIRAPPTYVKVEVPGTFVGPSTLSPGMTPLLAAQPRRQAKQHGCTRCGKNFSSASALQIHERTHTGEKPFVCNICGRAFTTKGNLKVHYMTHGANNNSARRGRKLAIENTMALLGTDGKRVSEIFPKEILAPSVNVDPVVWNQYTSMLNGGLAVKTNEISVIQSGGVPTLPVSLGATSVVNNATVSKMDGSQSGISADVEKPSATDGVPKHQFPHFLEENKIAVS
Technique: universal PBM
Molecule type: double-stranded DNA, one strand shown
Medium: in vitro
Tested at: 600 nM
Notes: 8-mer, flanks averaged, mean of replicates
Reading: higher = stronger binding
Oligonucleotide | E-score
GCAACTGA | -0.092
GTCGCTGA | -0.13
GGATCAAA | 0.119
CTGCAGTA | -0.000825
CGAACGAC | -0.118
CTTAGTGA | -0.0889
CCATACTC | -0.0852
AGTGGAGG | -0.0695
AGGTGTTG | -0.0311
ACGGATAC | 0.036
CCCAACCC | -0.181
AAGCAGCG | -0.128
AACTAATC | 0.17
AGTGACTG | -0.171
ATCGGTTC | -0.185
CATGGCAA | 0.0394
ACTCTGCC | 0.00692
CTGTGCTA | -0.0346
AACATGAT | 0.309
GCCTGGAC | -0.234
CATCTTCC | 0.0831
ATAACTTG | 0.287
AGCATTTC | 0.235
GATTCGCA | -0.0134
ACCTAAAG | 0.0367

Set 2
Target: RNA binding protein fox-1 homolog 2, RRM domain, GST-SBP tag (RBFOX2, Homo sapiens, UniProt O43251-10, residues 100-194)
Technique: RNA Bind-n-Seq
Molecule type: RNA
Medium: in vitro
Tested at: 365 nM
Notes: natural RNA segment, single round, ends assumed
Baseline: no-protein control
Reading: higher = stronger binding
Shared flanks, not repeated: GGGAGUUCUACAGUCCGACGAUC … UGGAAUUCUCGGGUGCCAA
Residues (chain): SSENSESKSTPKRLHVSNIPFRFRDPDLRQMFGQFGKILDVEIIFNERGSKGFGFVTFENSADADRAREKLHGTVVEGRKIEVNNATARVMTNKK
Oligonucleotide | RBNS enrichment (R)
AACAUUUUUUUUCAUUCCAGACUAACCAGAACCUGCAUUUAGAAUAGGAGUCCUUUCUCCGACCUUUUCUUCAGUUCCACAGCGAAGCCUCUGUGCUCCUUUUAUACUUG | 0.606
UAUGUCCUGUCUGCCAGCGUUCCCUGUACUAUAGGCCUGUGUAUAGUGUAGGGCAGAGCGUUGACCCACUGGCUAGUGCUUGACUUGGGAAUCAGGACAGUACCUGUACA | 0.703
AUAGUACACACUAAGUUUCCCACUAGCAGAGUCCUCGCCAUGUCAUUUCUACCUCCAAAGUCAUCAGAGCCUGCUUGUCCACAUCUGGUCCAGGUGGGAGUACAAGGAAG | 0.319
UCUAUUGCUCAACAGUCCCUGUCAUCCUUAAGUGACUUCUGGGUUUCCCACAAAUUCCUCACUUUUAGACACACUCUAAGCUUACUUCUGGCCUGGAUGCUUCCUCUCCC | 0.295
CAAAUGUCAAUCUUUAUUAGAAAGCAUUUUCUAGGUGUGUUUAGUGUGCAAAGAAACUUUCUAACCCUUACCGGACACCGCACAGCUUCCUGCACUCAAGCCGCAGGGUA | 0.368
UUGCUAAUUCCUGUCUGGUUCCUCUCUGGCAGAGCUUGGGAGGCACAAGAGAUCCUUUUCUCUUUCCAAACAGCUUUGCACAAUCUAGAAAUUCAGUGGGUUUUUUUUUU | 0.391
CCAGCACCAGCGGUCUUCCGGCUCCUCUGAGGGCUGCCACGUUGGGCGAGGGGAGCCAUGCCAAGGGUCCAGGCUGCUUUAGGCCAUCUGUGCCCCACUCAUCUGGGGAC | 0.595
CCACUCACCAGCUGAGGUCUGUCAGGUUUUGAAGGCUUGAUUUUGUGGUGGGUUUGGGGCUUAGUUUUCCUUUUUUUCAUUUUGAUUUUUGAAAGUGAAGAUGAUGCCCU | 0.296

Set 3
Target: Phosphate system positive regulatory protein PHO4, full length, GST-tagged (PHO4, Saccharomyces cerevisiae, UniProt P07270, residues 1-312)
Technique: competition protein-binding microarray
Molecule type: double-stranded DNA, one strand shown
Medium: in vitro
Tested at: 2 µM
Notes: whole 60-bp probe, lowest competitor level
With: Cbf1 competitor, 0.05 µM
Reading: higher = stronger binding
Shared flanks, not repeated: … GTCTTGATTCGCTTGACGCTGCTG
Target sequence (chain): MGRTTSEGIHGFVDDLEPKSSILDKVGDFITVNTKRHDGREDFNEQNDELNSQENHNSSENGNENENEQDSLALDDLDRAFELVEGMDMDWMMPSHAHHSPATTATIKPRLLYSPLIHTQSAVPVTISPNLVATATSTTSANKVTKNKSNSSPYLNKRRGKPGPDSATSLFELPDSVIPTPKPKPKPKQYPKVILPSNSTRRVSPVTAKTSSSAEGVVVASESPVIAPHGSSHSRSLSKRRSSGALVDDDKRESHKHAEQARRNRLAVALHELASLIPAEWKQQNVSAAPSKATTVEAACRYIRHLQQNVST
Oligonucleotide | fluorescence intensity [a.u.]
GGTACAATCCGTTTGAACGTGACGGGGTTTGTTACA | 9460
TACCAGCACTTATAACAAATGATGACAGTAAGCGCA | 3960
TGCTGTCATTTGAGTCAGGTGTAGAGCAGGTTAGAA | 3710
TGCGCAACAACTTGTCACCCGACTTTATGTCTAGAA | 3450
GGGCCAAGCGAGAGTCACGTGCTTTACAGGCCTGCC | 15100
TCATCTCTAAGAGTTGCCGTGCCGATCCATCCGCTT | 4510
CCGCGCAAAGCAGGCACCGTGCCGATATCTTTCTTT | 8510
GTCTTGTCTCATTGGGCTGTGGGTGTCCCCACTTCA | 4500
AGCTGGCAGAACCTCCATGTGCTCCAGGTCTCTGAT | 10800
GTCTTGTCTCATTTTCACGTGACGTTCCCCACTTCA | 11300
TTATCTAGCTCTGCCCACATGTGTGTTAACGAAGCA | 10600
CCTTACAGGAGATCGGACGTGTGAAATTATTGTTAC | 4660
ACTCAGGTTATCAAGTTCGTGCAAACTATTCAAGAA | 6020
CCTTGGTCTGTAGAGCACATGGCATTTCCAGGTCTC | 10700
GCATCTGCAGGGTGCCTCGTGCAAAGTTAGAGGAAG | 10300
CGTCCTAGTGATTGCCGAGTGGGTGCCATGAGGAAG | 7260
AAATTACTAAGTTTTCACGTGACTTACCCCGTATGA | 11800
GCACAGAAGCCCCATCACGTGACAAACAAGTGCTTC | 12000
CTTCTGTAAATTTTTCACGTGGACTGACGCGCCCCG | 12700

Set 4
Target: Ras GTPase-activating protein-binding protein 1, full length (G3BP1, Homo sapiens, UniProt Q13283)
UniProt Q13283, sequence (whole entry, looked up): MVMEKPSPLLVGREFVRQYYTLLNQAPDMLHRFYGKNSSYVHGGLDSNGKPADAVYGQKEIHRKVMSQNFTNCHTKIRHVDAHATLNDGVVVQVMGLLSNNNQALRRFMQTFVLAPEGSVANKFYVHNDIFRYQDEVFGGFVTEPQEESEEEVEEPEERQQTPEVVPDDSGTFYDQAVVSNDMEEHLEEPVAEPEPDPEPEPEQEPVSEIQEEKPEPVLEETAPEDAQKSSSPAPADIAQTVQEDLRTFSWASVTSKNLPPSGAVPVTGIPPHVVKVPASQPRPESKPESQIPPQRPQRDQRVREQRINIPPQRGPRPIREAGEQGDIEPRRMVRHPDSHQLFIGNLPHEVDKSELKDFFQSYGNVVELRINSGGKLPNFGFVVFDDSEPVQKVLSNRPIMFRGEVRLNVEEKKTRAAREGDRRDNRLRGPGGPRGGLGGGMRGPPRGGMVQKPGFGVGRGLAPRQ
Technique: RNA Bind-n-Seq
Molecule type: RNA
Medium: in vitro
Tested at: 200 nM
Notes: whole 134-nt RNA, ends assumed
With: 150 mM LiCl
Baseline: input library
Reading: higher = stronger binding
Library: 7-deaza-guanosine replaces G
Shared flanks, not repeated: GGGAGUUCUACAGUCCGACGAUC … UGGAAUUCUCGGGUGUCAAGG
Oligonucleotide | log2 enrichment
UGGGAGGUGGAUUUUGUUUAUUUUUUUAGCUCAUUUCCAGGGGUGGGAAUUUUUUUUUAAUAUGUGUCAUGAAUAAAGUCGUUUUUGAAA | 0.026
CCUCAAGUCCUGUGCUACACAUCGUAUGUACCGAAUCGGAAAAAGGAGGUGGAAAGUAUUAUGUUACGCCGUUCGGAUCUGCACUUCCAG | 0.176
UGGGAGGUGGAUUUUUUUUAUUUUUUUAGCUCAUUUCCAGGGGUGGGAAUUUUUUUUUAAUAUGUGUCAUGAAUAAAGUUGUUUUUGAAA | 0.23
UGGAUCAAGAGGAAGUAAAAAGAAUUACCAGUCACAGGCUGACAUUCCCAUUCGGUCUCCCUUUGGUAUUGUGAAAGCAUCCUGGCUACC | 0.45
AGUCCUGUGCUACACAUCGUAUGUACCGAAUCGGGGUUUUGGGGUUUUGGGGUUUUGGAAAGUAUUAUGUUACGCCGUUCGGAUCUGCAC | 0.473
CUCAAGUCCUGUGCUACACAUCGUAUGUACCGAAUCGGGGUGGGGUGGGUGGGAAAGUAUUAUGUUACGCCGUUCGGAUCUGCACUUCCA | -1.08
GCAGGAAGUAAAAACAAAUGGAAAUGCUUCGGAUAGUGGCAGGGGUGGGGGUUGCUAAGGAAAGGGUAGGAUGGGAGUGGGUAAAGAGUU | 0.0616
UCCUGUGCUACACAUCGUAUGUACCGAAUCGGGGUUUUUUUGGGGUUUUUGGGGAGGGGAAAGUAUUAUGUUACGCCGUUCGGAUCUGCA | 0.769
